Results pooled from the literature.
A part holds a random share of what one study measured. Changes are numbered by the printed parent chain.

Sample 1
Target: CEP164, C-terminal peptide (human)
Method: DHFR complementation, deep sequencing
Medium: yeast
Setting: single substitutions, model-inferred values
Relative to: wild type
Reading: higher = weaker binding
Parent: PDZK1, PDZ domain 2 (human); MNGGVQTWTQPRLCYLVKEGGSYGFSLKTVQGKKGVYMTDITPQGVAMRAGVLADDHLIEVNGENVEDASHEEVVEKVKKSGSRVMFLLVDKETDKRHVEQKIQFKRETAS; partner HNRVKVYRF
Variant | binding free energy change [kcal/mol]
D95E | -0.164
G21T | -0.205
H71V | 0.063
G20H | 0.189
C14Y | 0.765
A54E | -0.513
D91L | 0.288
E72R | 0.73

Sample 2
Target: CREB3L1, bZIP domain (human)
Method: DHFR protein complementation
Medium: yeast
Setting: single substitutions, most at no-binding floor
Relative to: wild-type JUN-FOS pair
Reading: higher = stronger binding
Parent: JUN, bZIP domain (human); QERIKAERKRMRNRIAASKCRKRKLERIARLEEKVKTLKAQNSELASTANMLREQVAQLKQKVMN; partner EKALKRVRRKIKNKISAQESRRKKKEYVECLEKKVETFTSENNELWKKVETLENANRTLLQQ
Variant | binding fitness [natural log]
V35P | -1.47
R53G | -1.49
N42V | -1.46
K39L | -1.29
L38H | -1.48
E44W | -1.48
A40N | -1.45
A57L | -1.4

Further values, each from its own experiment
CCNA2: CCNA2, cyclin fold, Cln2 fusion (human)
P1: viral docking peptide; PTARRRLLHDLDT; partner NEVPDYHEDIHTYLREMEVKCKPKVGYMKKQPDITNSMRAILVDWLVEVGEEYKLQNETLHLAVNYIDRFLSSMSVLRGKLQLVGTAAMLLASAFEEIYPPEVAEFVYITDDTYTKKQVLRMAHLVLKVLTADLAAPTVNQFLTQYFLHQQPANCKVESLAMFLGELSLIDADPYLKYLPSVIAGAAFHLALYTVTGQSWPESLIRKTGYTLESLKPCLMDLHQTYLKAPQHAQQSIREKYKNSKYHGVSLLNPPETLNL
P2: PafA, mature enzyme, eGFP fusion (Elizabethkingia meningoseptica, UniProt Q9KJX5); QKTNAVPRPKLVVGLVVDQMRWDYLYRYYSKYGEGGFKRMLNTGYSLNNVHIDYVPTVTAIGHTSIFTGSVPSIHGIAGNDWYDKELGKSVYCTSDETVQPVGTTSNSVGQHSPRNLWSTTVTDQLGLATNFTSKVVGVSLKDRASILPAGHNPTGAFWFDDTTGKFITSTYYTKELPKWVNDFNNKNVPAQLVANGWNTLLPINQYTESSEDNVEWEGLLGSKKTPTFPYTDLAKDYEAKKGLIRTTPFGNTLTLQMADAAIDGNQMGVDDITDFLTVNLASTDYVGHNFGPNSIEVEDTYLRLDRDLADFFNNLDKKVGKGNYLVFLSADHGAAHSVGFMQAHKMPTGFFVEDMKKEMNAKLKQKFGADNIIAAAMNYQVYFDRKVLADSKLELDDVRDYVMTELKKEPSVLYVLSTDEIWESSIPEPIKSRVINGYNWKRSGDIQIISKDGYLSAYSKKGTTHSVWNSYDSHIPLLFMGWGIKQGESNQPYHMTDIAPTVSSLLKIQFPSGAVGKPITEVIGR
Variant | target | test | system | setting | scale | endpoint | value
P1 R5A R6A L7A L8A | CCNA2 | yeast growth competition, sequencing | yeast | strong parent motif | relative to: not given, higher = stronger binding | normalised enrichment score | -0.111
P2 G35V | inorganic phosphate, free oxyanion | microfluidic competitive inhibition | in vitro, cell-free expressed | not given, derived from inhibition constants, unchanged parent 615000 nM | lower = stronger binding | phosphate dissociation constant | 661 µM
P1 H9A | CCNA2 | yeast growth competition, sequencing | yeast | strong parent motif | relative to: not given, higher = stronger binding | normalised enrichment score | 3.95
P2 K135V | inorganic phosphate, free oxyanion | microfluidic competitive inhibition | in vitro, cell-free expressed | not given, derived from inhibition constants, unchanged parent 615000 nM | lower = stronger binding | phosphate dissociation constant | 588 µM

Some of these lines once more (sample 1):
Variant | binding free energy change [kcal/mol]
E72R | 0.73
D91L | 0.288
